# Published values gathered from unrelated publications.
# Each line is one published result; not all experiments were run side by side. ± gives the spread as reported.
Structure (SMILES),test,test system,conditions,tissue uptake [%ID/g]
C[C@H](O)[C@@H](NC(=O)[C@H]1CCCN1C(=O)[C@@H](CCCCN)NC(=O)[C@@H](CO)NC(=O)[C@@H](Cc1ccc(O)cc1)NC(=O)[C@@H](CC(N)=O)NC(=O)CCOCCOCCOCCNC(=O)CN1CCN(CC(=O)O)CCN(CC(=O)O)CCN(CC(=O)O)CC1)C(=O)N[C@H](CC(=O)O)C(=O)N[C@H](CCCNC(=N)N)C(=O)N[C@H](CCC(N)=O)C(=O)N[C@H](Cc1ccc(O)cc1)C(=O)N[C@H](Cc1c[nH]cn1)C(=O)N[C@H](Cc1ccccc1)C(N)=O [gallium-68 labelled],ex vivo gamma counting,"BALB/c nude mouse, U-87 MG xenograft, blood","intravenous, 1.85 MBq, 30 min",1.55 ± 1.07
CC(C)C[C@@H](NC(=O)[C@@H](CCCNC(=N)N)NC(=O)[C@@H](Cc1c[nH]cn1)NC(=O)[C@@H](Cc1c[nH]c2ccccc12)NC(=O)[C@@H](Cc1c[nH]cn1)NC(=O)[C@@H](Cc1ccccc1)NC(=O)[C@H](NC(=O)[C@@H](Cc1ccc(O)cc1)NC(=O)CNC(=O)CNC(=O)CCOCCOCCOCCNC(=O)CN1CCN(CC(=O)O)CCN(CC(=O)O)CC1)[C@H](C)O)C(=O)N[C@H](CC(N)=O)C(=O)N1CCC[C@@H]1C(=O)O [gallium-68 labelled],,"C57BL/6 mice, male, brain","intravenous, 1.85 MBq, 60 min, together with: GP12 blocking",0.54 ± 0.17
CCCC[C@H]1C(=O)N(C)[C@@H](CCCC)C(=O)N[C@@H](CCCNC(=O)CN2CCN(CC(=O)O)CCN(CC(=O)O)CCN(CC(=O)O)CC2)C(=O)N[C@H](C(=O)NCC(N)=O)CSCC(=O)N[C@@H](Cc2ccc(O)cc2)C(=O)N(C)[C@@H](C)C(=O)N[C@@H](CC(N)=O)C(=O)N2CCC[C@H]2C(=O)N[C@@H](Cc2c[nH]cn2)C(=O)N[C@@H](CC(C)C)C(=O)N(C)CC(=O)N[C@@H](Cc2c[nH]c3ccccc23)C(=O)N[C@@H](CO)C(=O)N[C@@H](Cc2c[nH]c3ccccc23)C(=O)N1C [gallium-68 labelled],,"NOD/SCID mice, CHO-hPD-L1 xenograft, spleen","60 min, PBS pretreatment",3.1 ± 0.24
CC[C@H](C)[C@H](NC(=O)[C@H](CCCCN)NC(=O)CNC(=O)[C@H](CC(C)C)NC(=O)[C@H](Cc1ccccc1)NC(=O)[C@H](CCCCN)NC(=O)[C@H](CO)NC(=O)[C@H](Cc1ccccc1)NC(=O)[C@H](Cc1c[nH]c2ccccc12)NC(=O)[C@H](CCC(N)=O)NC(=O)[C@@H](NC(=O)[C@H](Cc1ccccc1)NC(=O)CCCCCNC(=O)CN1CCN(CC(=O)O)CCN(CC(=O)O)CCN(CC(=O)O)CC1)C(C)C)C(=O)N[C@@H](CCC(=O)O)C(=O)N1CCC[C@H]1C(=O)N[C@@H](CC(=O)O)C(=O)N[C@H](C(=O)N[C@@H](CO)C(=O)N[C@@H](CCC(N)=O)C(=O)N[C@H](C(=O)N[C@@H](CCC(N)=O)C(=O)N[C@@H](CC(=O)O)C(=O)N1CCC[C@H]1C(=O)N[C@@H](CC(N)=O)C(=O)N[C@@H](CC(=O)O)C(=O)N[C@@H](CCC(N)=O)C(=O)N[C@@H](Cc1ccc(O)cc1)C(=O)N[C@@H](CCC(=O)O)C(=O)N1CCC[C@H]1C(=O)N[C@@H](Cc1ccccc1)C(=O)O)C(C)C)C(C)C [copper-64 labelled],,"C57BL/6 male mouse, tumour-naive, large intestine",24 h,6.8 ± 0.9
CC[C@H](C)[C@H](NC(=O)[C@H](CCCNC(=N)N)NC(=O)[C@H](CCCCN)NC(=O)[C@H](Cc1ccc(O)cc1)NC(=O)[C@H](CC(=O)O)NC(=O)[C@H](C)NC(=O)CNC(=O)CCOCCOCCOCCNC(=O)CN1CCN(CC(=O)O)CCN(CC(=O)O)CCN(CC(=O)O)CC1)C(=O)N[C@H](C(=O)N[C@@H](CC(C)C)C(=O)N[C@@H](CCCCN)C(=O)N[C@H](C(=O)N[C@@H](CC(N)=O)C(N)=O)C(C)C)[C@@H](C)O [copper-64 labelled],ex vivo gamma counting,"C57BL/6J male mice, B16-F10 tumour, bone","intravenous, 1.85 MBq, 20 min",0.824 ± 0.321
CSCC[C@H](NC(=O)CNC(=O)[C@H](CCCCN)NC(=O)[C@H](CC(C)C)NC(=O)[C@@H]1CCCN1C(=O)[C@H](CO)NC(=O)[C@H](Cc1c[nH]cn1)NC(=O)[C@H](Cc1c[nH]c2ccccc12)NC(=O)[C@H](CCCNC(=N)N)NC(=O)[C@H](CC(C)C)NC(=O)[C@H](CCCNC(=N)N)NC(=O)[C@H](Cc1c[nH]c2ccccc12)NC(=O)[C@H](CS)NC(=O)CCCCCNC(=O)CN1CCN(CC(=O)O)CCN(CC(=O)O)CCN(CC(=O)O)CC1)C(=O)O [copper-64 labelled],PET,"C57BL/6J mice, B16-F10 tumour, liver","intravenous, 18 h",6.23 ± 0.41
CN1Cc2cc(Cl)ccc2-n2c(nnc2C2CCN(c3cccc([18F])n3)CC2)C1,,"C57BL/6 mouse male, spleen","intravenous, 3.7 MBq, 1 min",2.96 ± 1.56
CC[C@H](C)[C@H](NC(=O)[C@H](CCCNC(=N)N)NC(=O)[C@H](CCCCN)NC(=O)[C@H](Cc1ccc(O)cc1)NC(=O)[C@H](CC(=O)O)NC(=O)[C@H](C)NC(=O)CNC(=O)CCOCCOCCOCCNC(=O)CN1CCN(CC(=O)O)CCN(CC(=O)O)CCN(CC(=O)O)CC1)C(=O)N[C@H](C(=O)N[C@H](C(=O)N[C@@H](CCCCN)C(=O)N[C@H](C(=O)N[C@@H](CC(N)=O)C(N)=O)C(C)C)C(C)C)[C@@H](C)O [copper-64 labelled],ex vivo gamma counting,"C57BL/6J male mice, B16-F10 tumour, kidney","intravenous, 1.85 MBq, 20 min",12.5 ± 0.542

# A few entries again:
Structure (SMILES),test,test system,conditions,tissue uptake [%ID/g]
CC[C@H](C)[C@H](NC(=O)[C@H](CCCNC(=N)N)NC(=O)[C@H](CCCCN)NC(=O)[C@H](Cc1ccc(O)cc1)NC(=O)[C@H](CC(=O)O)NC(=O)[C@H](C)NC(=O)CNC(=O)CCOCCOCCOCCNC(=O)CN1CCN(CC(=O)O)CCN(CC(=O)O)CCN(CC(=O)O)CC1)C(=O)N[C@H](C(=O)N[C@@H](CC(C)C)C(=O)N[C@@H](CCCCN)C(=O)N[C@H](C(=O)N[C@@H](CC(N)=O)C(N)=O)C(C)C)[C@@H](C)O [copper-64 labelled],ex vivo gamma counting,"C57BL/6J male mice, B16-F10 tumour, bone","intravenous, 1.85 MBq, 20 min",0.824 ± 0.321
